Measured values collected from several papers.
Lines come from different studies, so protocols differ. ± gives the spread as reported.
lecA: PA-I galactophilic lectin (lecA, Pseudomonas aeruginosa, UniProt Q05097)
YWHAZ: 14-3-3 protein zeta/delta (YWHAZ, Homo sapiens, UniProt P63104)

For `CC[C@H](C)[C@H](NC(C)=O)C(=O)N[C@H]1CSSC[C@@H](C(=O)N[C@H](C(N)=O)[C@@H](C)O)NC(=O)[C@H](CCCNC(=N)N)NC(=O)[C@H](Cc2c[nH]cn2)NC(=O)[C@@H]2CCCN2C(=O)CNC(=O)[C@H](Cc2c[nH]c3ccccc23)NC(=O)[C@H](CC(=O)O)NC(=O)[C@H](CCC(N)=O)NC(=O)[C@H](Cc2cn(C)c3ccccc23)NC(=O)[C@H](C(C)C)NC1=O`, the ΔG was -10.1 kcal/mol (Complement C3 (Homo sapiens, UniProt P01024); ITC; 25 °C; more negative = stronger binding).
`O=C(CCl)N(CCNC(=O)C(F)(F)F)c1ccc([N+](=O)[O-])cc1` — result for “total modified species”: 100% (GSTO1 (Homo sapiens, UniProt P78417); LC-MS/MS; sum of normalized AUCs).
`Cn1ccc(-c2cc(Cl)c(Cl)c3[nH]c4c(c23)CN(C(=O)CO)CC4)n1` — result for binding: “no binding” (CGAS (Homo sapiens, UniProt Q8N884); surface plasmon resonance; concentration not given, added: ATP).
`CC(=O)N[C@@H](CO)C(=O)N[C@@H](C)C(=O)N[C@@H](CCCCN)C(=O)N[C@@H](C)C(=O)N[C@@H](C)C(=O)N[C@@H](CC(=O)O)C(=O)N[C@@H](CC(=O)O)C(=O)N1CCC[C@H]1C(=O)N[C@@H](CCC(=O)O)C(=O)N[C@@H](CC(N)=O)C(=O)NCC(=O)N[C@@H](CCC(=O)O)C(=O)N[C@@H](CCCNC(=N)N)C(=O)N[C@@H](CCC(=O)O)C(=O)N[C@@H](CO)C(=O)N[C@@H](Cc1c[nH]cn1)C(=O)N[C@H](C(=O)N1CCC[C@H]1C(=O)N[C@H](C(=O)N[C@@H](CO)C(N)=O)C(C)C)[C@@H](C)O` has a TΔS of -6.98 kcal/mol (Kelch-like ECH-associated protein 1, Kelch domain (KEAP1, Homo sapiens, UniProt Q14145); isothermal titration calorimetry; Kelch domain; pH 7, 298.15 K).
With `CC(C)CC(=N)NCCC[C@H](N)C(=O)O` the heme loss was < 5% (Nitric oxide synthase, inducible, heme domain (Nos2, Mus musculus, UniProt P29477); heme content, inactivator, HPLC and LC/MS; purified enzyme).
With `O=C1c2ccc(O)cc2OC(Oc2ccc(-c3coc4cc(O)ccc4c3=O)cc2)C1(O)c1ccc(O)cc1` (stereo not drawn) the Km was 168 ± 10.6 µM (laccase (Trametes versicolor); substrate; product formation).
For `COc1ccc2c(c1)/C(=N/N=C/c1ccc(OCc3ccccc3)cc1)C(=O)N2`, the remaining activity was 85.7% (MAOA (Homo sapiens, UniProt P21397); enzyme activity, inhibitor; 10 µM).
`COCCOCCOc1cc(-c2cn([C@H]3[C@H](O)[C@@H](O)[C@H](n4cc(-c5ccc(O[C@@H]6O[C@H](CO)[C@H](O)[C@H](O)[C@H]6O)cc5)nn4)O[C@@H]3CO)nn2)c(OCCOCCOC)cc1-c1cn([C@H]2[C@H](O)[C@@H](O)[C@H](n3cc(-c4ccc(O[C@@H]5O[C@H](CO)[C@H](O)[C@H](O)[C@H]5O)cc4)nn3)O[C@@H]2CO)nn1` gave a ΔG of -9.9 ± 0.2 kcal/mol (lecA; ITC; 5% DMSO).
For `CNc1ccccc1C(=O)O[C@H]1C[C@H](n2cnc3c(N)ncnc32)O[C@@H]1COP(=O)(O)OP(=O)(O)O`, “ΔG of pocket step” read 0.9 ± 0.5 kcal/mol (Unconventional myosin-Va (Gallus gallus, UniProt Q02440, D297C/G292C/I296C/S293C/V295G); van't Hoff analysis; added: 2 mM Mg2+).
`OC(Cc1cc(-c2ccc(C(O)C(F)(F)F)s2)sc1-c1ccc(-c2sc(-c3ccc(C(O)C(F)(F)F)s3)cc2CC(O)C(F)(F)F)s1)C(F)(F)F` (stereo not drawn) gave a Kd ratio of 14 (Microtubule-associated protein tau, 0N4R isoform, aggregated (MAPT, Homo sapiens, UniProt P10636); binding, fluorescence; 10% sucrose tau fraction; baseline: 10% over 20% fraction).
`CC[C@H](C)[C@H](NC(=O)[C@H](CCCNC(=N)N)NC(=O)[C@H](CCCCN)NC(=O)[C@@H](NC(=O)[C@H](C)NC(=O)[C@H](CCCNC(=N)N)NC(=O)[C@H](CCC(N)=O)NC(=O)[C@H](CO)NC(=O)[C@H](CCCCN)NC(=O)[C@H](CC(N)=O)NC(=O)[C@@H](N)CCCNC(=N)N)[C@@H](C)O)C(=O)N[C@@H](CO)C(=O)N[C@@H](Cc1c[nH]cn1)C(=O)N[C@@H](CCSC)C(=O)N1CCC[C@H]1C(=O)N[C@@H](CO)C(=O)N[C@@H](CCCNC(=N)N)C(=O)N1CCC[C@H]1C(=O)N[C@@H](CCC(=O)O)C(=O)N[C@@H](CC(C)C)C(=O)N[C@@H](CO)C(=O)N[C@@H](C)C(=O)N[C@H](C(=O)N[C@@H](C)C(=O)N[C@H](C(=O)N[C@@H](CC(=O)O)C(=O)N[C@@H](CC(C)C)C(=O)N[C@@H](CCCNC(=N)N)C(=O)N[C@@H](CCCCN)C(=O)N[C@@H](CC(=O)O)C(=O)N[C@@H](CCCCN)C(=O)N[C@@H](C)C(=O)N[C@@H](CCCCN)C(=O)N[C@@H](COP(=O)(O)O)C(=O)N[C@@H](CSC/C=C(\C)CC/C=C(\C)CCC=C(C)C)C(=O)OC)[C@@H](C)O)C(C)C` has a koff of 10.9 s⁻¹ (YWHAZ; dissociation, stopped-flow fluorescence polarization; two-step model).
With `COc1cc(C(C)C)c(Oc2cnc(N)nc2N)cc1I` the IC50 ratio was ~1000 fold (P2X purinoceptor 2 (P2rx2, Rattus norvegicus, UniProt P49653, I67V); ATP-evoked current, inhibitor, patch clamp; HEK293 transfected; baseline: P2rx2 over rat P2X3).
Under receptor occupancy, `CC(C)/C=C(\C#N)C(=O)N1CCC[C@@H](n2nc(-c3ccc(Oc4ccccc4)cc3)c3c(N)ncnc32)C1` is recorded as “decreased” (BTK (Homo sapiens, UniProt Q06187); concentration not given).
Under “non-specific binding share”, `[11CH3]Oc1ccc(-n2nc(OCCCN3CCCCC3)ccc2=O)cc1` is recorded as ~45% (Sigmar1 (Mus musculus, UniProt O55242); radiotracer; mouse BALB/c, brain; dose not given, added: self-blocking 12.5 mg/kg).
For `O=C(N[C@@H](Cc1coc2ccccc12)B(O)O)[C@@H]1C[C@H]2CC[C@@H]1O2`, protein level read “no effect” (Proteasome component C5/PSMB8 (Homo sapiens, UniProt P20618+P28062); mouse, U266B1 xenograft, tumour; oral, single dose, 24 h).
For `CSCC[C@H](NC(C)=O)C(=O)NCC(=O)NCC(=O)N[C@@H](CCC(=O)O)C(=O)N[C@@H](CC(C)C)C(=O)N[C@H](C(=O)N[C@H](C(=O)NCC(=O)N[C@@H](CC(C)C)C(=O)NCC(=O)N[C@@H](C)C(=O)N[C@@H](CC(C)C)C(=O)N[C@@H](CCCNC(=N)N)C(=O)N[C@@H](CCCNC(=N)N)C(=O)N[C@@H](CCCNC(=N)N)C(=O)N[C@@H](CCCCN)C(=O)N[C@@H](CCCNC(=N)N)C(=O)N[C@@H](CC(C)C)C(=O)N[C@@H](CC(C)C)C(=O)N[C@@H](CCC(=O)O)C(=O)N[C@@H](CCC(N)=O)C(=O)N[C@@H](CCC(=O)O)C(=O)N[C@@H](CCCCN)C(=O)N[C@@H](CCCNC(=N)N)C(N)=O)[C@@H](C)O)C(C)C`, “block time constant” read 27 ms (Kcnma1 (Mus musculus, UniProt Q08460); ion current, blocker, inside-out patch clamp; 25 µM, +50 mV).
`C=C1C(=O)O[C@@H]2[C@H]3C(CO)=CC(=O)C3=C(C)C[C@H](O)[C@@H]12`: “quenching rate constant Kq” 3.89e+11 L/mol/s (MAL12 (Saccharomyces cerevisiae S288c, UniProt P53341); fluorescence quenching; 310 K).
The ΔG of `CC[C@H](C)[C@H](NC(=O)[C@@H](N)CCCCN)C(=O)N1CCC[C@H]1C(=O)N[C@@H](Cc1ccc(O)cc1)C(=O)N[C@@H](Cc1ccccc1)C(=O)N[C@@H](Cc1c[nH]cn1)C(=O)N[C@@H](C)C(=O)NCC(=O)NCC(=O)N[C@@H](CO)C(=O)N[C@@H](CCCCN)C(=O)N[C@@H](CS)C(=O)N[C@@H](CO)C(=O)N[C@H](C(=O)N[C@@H](Cc1c[nH]c2ccccc12)C(=O)N1CCC[C@H]1C(=O)N[C@@H](CC(C)C)C(=O)N1CCC[C@H]1C(=O)N[C@@H](CCC(N)=O)C(=O)N1CCC[C@H]1C(=O)N[C@@H](CO)C(=O)O)[C@@H](C)OP(=O)(O)O` is reported as -9.417 ± 0.0717 kcal/mol (YWHAZ; binding, ITC; pH 7.4, 37 °C, added: phosphorylated PRLR peptide).
`COC(=O)CCSc1nc2n(n1)C(c1cccc(OC)c1)C(C(=O)Nc1cncc(C)c1)=C(C)N2` (stereo not drawn) gave an inhibition of 94.3% (MTOR (Homo sapiens, UniProt P42345); enzyme activity, inhibitor, TR-FRET; 1 µM).
The ΔG of `C#Cc1ccc(O[C@@H]2O[C@H](CO)[C@H](O)[C@H](O)[C@H]2O)cc1` is reported as -6.9 ± 0.1 kcal/mol (lecA; isothermal titration calorimetry; 25 °C).
The relative KD of `CC[C@H](C)[C@H](NC(C)=O)C(=O)N[C@H]1CSSC[C@@H](C(=O)N[C@@H](CC(C)C)C(N)=O)NC(=O)[C@H](CCCNC(=N)N)NC(=O)[C@H](Cc2c[nH]cn2)NC(=O)[C@H](C)NC(=O)CN(C)C(=O)[C@H](Cc2c[nH]c3ccccc23)NC(=O)[C@H](CC(=O)O)NC(=O)[C@H](CCC(N)=O)NC(=O)[C@H](Cc2cn(C)c3ccccc23)NC(=O)[C@H](C(C)C)NC1=O` is reported as 2.6 (Complement C3, C3b fragment (Homo sapiens, UniProt P01024); SPR; 25 °C; baseline: [Trp(Me)4]-Ac-compstatin).
The −TΔS of `O=C(COCCc1ccccc1)N[C@@H](Cc1cn(CCNC(=O)c2ccc(S[C@@H]3O[C@H](CO)[C@H](O)[C@H](O)[C@H]3O)cc2)nn1)C(=O)NCCO` is reported as 12 ± 0.4 kJ/mol (lecA; binding, isothermal titration calorimetry; 25 °C).
For `C=C1CCN2C(=O)COc3cccc(c3)C(CCc3ccc(OC)c(OC)c3)OC(=O)C3CCCCN3C(=O)C(=O)C(C)(C)COC(=O)C(C)NC(=O)C2C1` (stereo not drawn), the recruitment was 0% (FKBP1A/MAPRE1 (Homo sapiens, UniProt P62942+Q15691); FKBP12-MAPRE1 proximity, TR-FRET; baseline: DMSO).
For `Cc1ccc(-c2c(/C=C(\C#N)C(=O)NC(C)C)n(CCCO)c3ncnc(N)c23)cc1`, “absorption peak change” read “no effect” (Ribosomal protein S6 kinase alpha-3, C-terminal kinase domain (Rps6ka3, Mus musculus, UniProt P18654, C436V); covalent bond formation, UV-visible spectroscopy; 25 or 300 µM).

A few entries again:
`COC(=O)CCSc1nc2n(n1)C(c1cccc(OC)c1)C(C(=O)Nc1cncc(C)c1)=C(C)N2` (stereo not drawn) gave an inhibition of 94.3% (MTOR (Homo sapiens, UniProt P42345); enzyme activity, inhibitor, TR-FRET; 1 µM).
`Cn1ccc(-c2cc(Cl)c(Cl)c3[nH]c4c(c23)CN(C(=O)CO)CC4)n1` — result for binding: “no binding” (CGAS (Homo sapiens, UniProt Q8N884); surface plasmon resonance; concentration not given, added: ATP).
